Results of several laboratories.
Each numbered part is a random draw from the data of one study; scales do not carry over between parts.

Sample 1
Target: Sal-like protein 4, full length isoform B (SALL4, Homo sapiens, UniProt Q9UJQ4-2, residues 1-616)
Technique: universal PBM
Form: double-stranded DNA, one strand shown
Medium: in vitro
Concentration: not given
Setting: 8-mer, flanks averaged, mean of replicates
Reading: higher = stronger binding
| Strand | E-score |
| --- | --- |
| TGACTAAA | 0.0621 |
| GGCTTACA | -0.0123 |
| CGACACAG | -0.129 |
| TACGTCCA | 0.0151 |
| CGAAGACG | -0.198 |
| CAAGAGGC | -0.134 |
| GACACACC | -0.0998 |

Sample 2
Target: Histone acetyltransferase KAT6A, both winged helices, GST fusion (KAT6A, Homo sapiens, UniProt Q92794, residues 1-181)
Technique: protein binding microarray
Form: double-stranded DNA, one strand shown
Medium: in vitro
Concentration: not given
Setting: 8-mer, flanks averaged, mean of 2 arrays, mostly near background
Reference: not given
Reading: higher = stronger binding
Residues (chain): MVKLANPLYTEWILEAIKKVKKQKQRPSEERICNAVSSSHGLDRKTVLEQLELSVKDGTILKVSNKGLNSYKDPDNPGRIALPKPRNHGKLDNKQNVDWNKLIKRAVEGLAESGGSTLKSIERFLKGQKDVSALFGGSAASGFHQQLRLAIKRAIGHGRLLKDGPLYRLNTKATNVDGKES
| Strand | E-score |
| --- | --- |
| CAACGCCG | 0.209 |
| AGCCGCCA | 0.188 |
| CAAACGTG | -0.116 |
| CAGTTACC | -0.0921 |
| CACGTCGC | 0.176 |
| AGAGAGGA | -0.179 |
| AAATCGTT | -0.0672 |
| GATCGCGC | 0.31 |
| ACCGAACC | -0.0285 |

Sample 3
Target: RING finger protein unkempt homolog, zinc fingers 1-6, GST-SBP tag (UNK, Homo sapiens, UniProt Q9C0B0, residues 30-357)
Technique: RNA Bind-n-Seq
Form: RNA
Medium: in vitro
Concentration: not given
Setting: RNA with constant flanks, human and mouse sites, ends assumed
Reference: input RNA pool
Reading: higher = stronger binding
Shared flanks, not repeated: GGGAGUUCUACAGUCCGACGAUC … CAACAGAGGAUUGAGCAUCA
Construct (chain): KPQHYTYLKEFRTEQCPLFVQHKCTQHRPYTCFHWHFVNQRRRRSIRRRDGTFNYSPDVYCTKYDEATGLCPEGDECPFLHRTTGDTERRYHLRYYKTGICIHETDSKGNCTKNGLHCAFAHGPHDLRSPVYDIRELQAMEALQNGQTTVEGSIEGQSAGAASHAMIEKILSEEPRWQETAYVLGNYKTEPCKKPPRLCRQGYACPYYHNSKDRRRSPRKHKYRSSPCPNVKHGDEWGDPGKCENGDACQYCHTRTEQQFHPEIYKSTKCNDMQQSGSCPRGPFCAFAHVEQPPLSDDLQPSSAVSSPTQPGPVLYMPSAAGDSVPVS
| Strand | bound/input enrichment [ratio] |
| --- | --- |
| UCUUCCCUGGAGUACAGCAUUAGAGUCUACUGCCUGGAUGACACACAGGAUGCCCUGAAGGAAGUUCUACAACUGGAGAGGCAAAUGGGAGGACAGCUCCUAGAAGAACCCAAGGCUCUU | 0.0775 |
| GUAUAUCAAGGAGUGAAGAAAGAUGGCUUUUUACAACCUCAUUUUUUGGCAGAACAGGAUAUAGUUAUCAUUACCUAUGAUGUACUGCGUUCAGAAUUAAAUUAUGUCGAUAUCCCACAU | 0.179 |
| GUGGCUGAUAUCUCUGUUGCUAAAAUAGAUCCUUUAGCACCUUUGGAUAAAGUCUGCCUUCUAGGUUGUGGCAUUUCAACCGGUUAUGGUGCUGCUGUGAACACUGCCAAGUUGGAGCCU | 0.302 |
| AGCUUCUACAGAACCAGAACCUUGCAGGCAUUAAGUAAUGAGAAGAAGGCCAAGAAGGUACGUUUCUACCGCAAUGGGGACCGUUACUUCAAGGGGAUUGUGUACGCUGUUUCUUCUGAC | 0.101 |
| UUGGGGAAAUAUAUGUGUGGCUCUCCUAAGUAUUUCCAUGAAGGAAACACCCACAAUCCUGUGGUGUUCAUCUUUUGACAAAUGCAAAUACUUCCCUCAUCAGUCAGCUCCUACUGAACU | 0.143 |
| AAUGGUGAAUCAGGAAAAGAAAUGGAUGACGAUAAAGAUGCAAAUAAAUCUGAAAUAAGCUUAGUGUUUGAGAUUGCGCUGAAGAGAAAUAUGCCUGUCAGUUUUGAGGUUAUUAAAGAA | 0.512 |
| AACUCUAGAGCUCCCCCAAGACUGACUGUAGUGUCCCCUAACCGAGCUACUUCAACGGAAACUAGCUCAUCUGUAGAGACUGAUUUGCAACCCUUCCGGGAAGCCAUAGCUCUGCAUGGU | 1.04 |
| GAGAAGAAAUAUUGCAGUGAAUGAAGAUUCCUCUGCAUUUUAGCACUGCUUUUUCAACUGUAGUUGGCUUUUGAAUGAGGAUGACAAUGGAAGAGAUGAAGAAUGAAGCUGAGACCACAU | 0.547 |
| GAUUUCUUCUCCAUUGGGAAUGAAGGUGUCAGGCGGGACUGGAACGUUCUAGAUGGUAUGUUCCGUGAUAUUAACAACUCUAACCCAGGACAGACCACAAGCCACACUCAGAGGCCUCAC | 0.0827 |

Other studies, line by line
| Substance | target | assay | test system | setting | how to read | quantity | value |
| --- | --- | --- | --- | --- | --- | --- | --- |
| PhoQ, residues 284 288 289 292 302 303 NLALSC | PhoP, residues 12 14 15 18 19 GQALL (Escherichia coli, UniProt P23836) | Sort-seq, refers to: YFP reporter | E. coli | PhoQ-PhoP variant library, added: 10 µM Mg2+ | reference: high Mg2+ state, higher = stronger signaling | fold induction | 1.43 |

Repeated from above (sample 2):
| Strand | E-score |
| --- | --- |
| CAGTTACC | -0.0921 |
| CACGTCGC | 0.176 |
| AGAGAGGA | -0.179 |
| AAATCGTT | -0.0672 |
